Published values pooled from the literature.
Numbers after ± are the reported error.
YAP1 WW2 domain: Transcriptional coactivator YAP1, WW2 domain (YAP1, Homo sapiens, UniProt P46937)

`CCOc1ccccc1S(=O)(=O)N1CC(c2nc(-c3ccccn3)no2)C1` — result for activity class: “inactive” (Potassium channel subfamily T member 1 (KCNT1, Homo sapiens, UniProt Q5JUK3); Tl+ flux, inhibitor; HEK293 expressing KCNT1; 30 µM).
`O=S(=O)(Sc1ccc(Cl)cc1)c1ccc(Cl)cc1` gave an inhibition of 75 ± 2% (tubulin; colchicine binding, [3H]colchicine binding; 50 µM, 10 min, 37 °C, together with: [3H]colchicine 5.0 µM).
Under “dissociation rate constant”, `Nc1ncnc2c1ncn2[C@@H]1O[C@H](COP(=O)(O)OP(=O)(O)OP(=O)(O)O)[C@@H](O)[C@H]1O` is recorded as 0.73 ± 0.07 s⁻¹ (Sodium/potassium-transporting ATPase subunit alpha-1 (ATP1A1, Canis lupus familiaris, UniProt P50997); binding, ligand dissociation kinetics; dog enzyme; Na+ 200 mM, 4 °C, Et3N+ replacement, total monovalent cation 500 mM, nitrate, preparation B).
The TΔS of `CC(C)C[C@H](NC(=O)[C@@H](NC(=O)[C@@H](N)[C@@H](C)O)C(C)C)C(=O)N1CCC[C@H]1C(=O)N1CCC[C@H]1C(=O)N1CCC[C@H]1C(=O)N1CCC[C@H]1C(=O)N[C@@H](Cc1ccc(O)cc1)C(=O)N[C@@H](CCCNC(=N)N)C(=O)N[C@@H](C)C(=O)N[C@@H](CCCNC(=N)N)C(=O)N[C@@H](CC(N)=O)C(=O)O` is reported as -8.62 ± 0.26 kcal/mol (YAP1 WW2 domain; binding, ITC; pH 7.0, 25 °C, WW2 domain).
The Vmax of `COc1ccc(Cl)cc1Nc1nc2c(s1)CCCCc1nc(NC(=O)c3ccno3)sc1-2` is reported as 467 µM/s (Cystic fibrosis transmembrane conductance regulator (CFTR, Homo sapiens, UniProt P13569, del508-508); iodide influx, corrector, YFP halide quenching; FRT cells expressing YFP-H148Q/I152L; 16 to 20 h, 37 °C, genistein 50 µM, together with: forskolin 20 µM).
For `CC[C@H](C)[C@H](NC(=O)[C@@H]1CCCN1C(=O)[C@@H]1CCCN1C(=O)[C@@H]1CCCN1C(=O)[C@@H](NC(=O)[C@H](CC(N)=O)NC(=O)[C@@H](N)Cc1ccccc1)[C@@H](C)CC)C(=O)N[C@@H](Cc1ccc(O)cc1)C(=O)N[C@H](C(=O)N[C@@H](CO)C(=O)N[C@@H](CCCNC(=N)N)C(=O)N[C@@H](C)C(=O)O)[C@@H](C)O`, the ΔG was -5.47 ± 0.03 kcal/mol (YAP1 WW2 domain; binding, ITC; pH 7.0, 25 °C, WW2 domain).
`Nc1ccc(CNC(=O)CN2C(=O)C3C4CCC(C4)C3C2=O)cc1` (centres unmarked) has a potency gain of greater than 1000 fold (Peptidyl-prolyl cis-trans isomerase F, mitochondrial (PPIF, Homo sapiens, UniProt P30405, K175I); binding, surface plasmon resonance; relative to: fragment Kd over compound Kd).
The Vmax of `IINFEKE` is reported as 141 ± 1 nmol/min/µg (Endoplasmic reticulum aminopeptidase 1 (ERAP1, Homo sapiens, UniProt Q9NZ08, V737R); L-AMC hydrolysis, activator; peptide; 100 µM, 5 min, pH 8.0, 27 °C, mutant V737R, together with: L-AMC varied from 0 µM).

Excerpt of the above:
For `CC[C@H](C)[C@H](NC(=O)[C@@H]1CCCN1C(=O)[C@@H]1CCCN1C(=O)[C@@H]1CCCN1C(=O)[C@@H](NC(=O)[C@H](CC(N)=O)NC(=O)[C@@H](N)Cc1ccccc1)[C@@H](C)CC)C(=O)N[C@@H](Cc1ccc(O)cc1)C(=O)N[C@H](C(=O)N[C@@H](CO)C(=O)N[C@@H](CCCNC(=N)N)C(=O)N[C@@H](C)C(=O)O)[C@@H](C)O`, the ΔG was -5.47 ± 0.03 kcal/mol (YAP1 WW2 domain; binding, ITC; pH 7.0, 25 °C, WW2 domain).
